Measurements from different studies.
Numbers after ± are the reported error.
HCRTR1: Orexin/Hypocretin receptor type 1 (HCRTR1, Homo sapiens, UniProt O43613)
Chain of UniProt O43613 (whole entry, looked up): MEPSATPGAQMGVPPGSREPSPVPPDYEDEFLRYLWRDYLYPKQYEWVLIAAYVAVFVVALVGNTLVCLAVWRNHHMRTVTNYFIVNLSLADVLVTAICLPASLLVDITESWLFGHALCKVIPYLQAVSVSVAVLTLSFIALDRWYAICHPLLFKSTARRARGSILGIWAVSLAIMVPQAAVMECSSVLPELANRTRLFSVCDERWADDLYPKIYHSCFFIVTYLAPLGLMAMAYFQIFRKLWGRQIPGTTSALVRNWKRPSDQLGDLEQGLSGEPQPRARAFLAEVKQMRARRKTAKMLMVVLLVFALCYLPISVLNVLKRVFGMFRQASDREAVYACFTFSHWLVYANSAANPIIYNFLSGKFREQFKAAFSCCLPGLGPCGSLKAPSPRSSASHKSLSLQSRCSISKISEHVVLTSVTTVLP

pneumocandin A0  MIC (Candida parapsilosis; broth microdilution, resazurin; ATCC 90018; 24 h, 35 °C): 12.8 µg/mL
CC1(C)SC2C(NC(=O)C(NC(=O)C3=C(O)C(c4ccccc4)NC3=O)c3ccccc3)C(=O)N2C1C(=O)O (stereo not drawn)  MIC (Acinetobacter baumannii; microbial growth, broth dilution; ATCC19606): 50 µg/mL
YGRKKRRQRRR (C-amide)  MIC (Candida parapsilosis; peptide, ATCC 22019; 24 h, 35 °C, dark): 12.5 µM
OC(Cn1cncn1)(Cn1cncn1)c1ccc(F)cc1F  MIC (Acanthamoeba polyphaga; cell growth, resazurin; 96 h, 28 °C): > 64 µg/mL
C=C(C)[C@@H]1CC[C@]2(C)CC[C@]3(C)[C@H](CC[C@@H]4[C@@]5(C)CCC(=O)C(C)(C)[C@@H]5CC[C@]43C)[C@@H]12  MIC (Lodderomyces parapsilosis; microbial growth, broth dilution; ATCC22019; 48 h): 500 µg/mL
pneumocandin B0  MIC (Candida glabrata; broth microdilution, resazurin; ATCC 2001; 24 h, 35 °C): 3.2 µg/mL
C=C(C)[C@@H]1CC[C@]2(C(=O)O)CC[C@]3(C)[C@H](CC[C@@H]4[C@@]5(C)CC[C@H](O)C(C)(C)[C@@H]5CC[C@]43C)[C@@H]12  MIC (Lodderomyces parapsilosis; microbial growth, broth dilution; ATCC22019; 48 h): 500 µg/mL
CCOC(=O)c1c(N)csc1-c1cn(-c2ccccc2)nc1-c1ccc(C)cc1  MIC (Klebsiella pneumoniae; broth microdilution; clinical urinary isolate; compound gamma-irradiated 15 kGy): 0.125 ± 0.2 µg/mL
pneumocandin K  MIC (Candida glabrata; broth microdilution, resazurin; ATCC 2001; 24 h, 35 °C): 0.1 µg/mL
CC1(C)SC2C(NC(=O)C(NC(=O)C3=C(O)C(Cc4ccccc4)NC3=O)c3ccccc3)C(=O)N2C1C(=O)O (stereo not drawn)  MIC (Escherichia coli; broth microdilution; BW25113, Mueller-Hinton broth; added: 2,2'-bipyridyl 30 µg/mL): 25 µg/mL
COc1cc2c(cc1OC)C(Cc1ccc(NC(C)=O)cc1)N(CC(=O)NCc1ccccc1)CC2 (stereo not drawn)  Kb (HCRTR1; calcium signal, antagonist, fluorescence): > 10 µM
CN1CC(O)=C(C(=O)NC(C(=O)NC2C(=O)N3C2SC(C)(C)C3C(=O)O)c2ccccc2)C1=O (stereo not drawn)  MIC (Acinetobacter baumannii; microbial growth, broth dilution; ATCC19606): 100 µg/mL
CCCCCCCC1c2cc(OC)c(OC)cc2CCN1CC(=O)NCc1ccccc1 (stereo not drawn)  Kb (HCRTR1; calcium signal, antagonist, fluorescence): > 10 µM
CC1(C)S[C@@H]2[C@H](NC(=O)[C@H](N)c3ccccc3)C(=O)N2[C@H]1C(=O)O  MIC (Lactobacillus acidophilus; broth microdilution; ATCC 4356, MRS medium; 24 h, 37 °C): 0.62 µg/mL
CC1(C)SC2C(NC(=O)C(NC(=O)C3=C(O)CN(c4ccccc4)C3=O)c3ccccc3)C(=O)N2C1C(=O)O (stereo not drawn)  MIC (Acinetobacter baumannii; microbial growth, broth dilution; ATCC19606): 25 µg/mL
